Measurements pooled from the literature.
Each numbered part is a random draw from the data of one study; scales do not carry over between parts.

Sample 1
Target: Phosphate system positive regulatory protein PHO4, full length, GST-tagged (PHO4, Saccharomyces cerevisiae, UniProt P07270, residues 1-312)
Technique: competition protein-binding microarray
Molecule type: double-stranded DNA, one strand shown
Medium: in vitro
Tested at: 2 µM
Notes: whole 60-bp probe, lowest competitor level
With: Cbf1 competitor, 0.05 µM
Direction: higher = stronger binding
Construct (chain): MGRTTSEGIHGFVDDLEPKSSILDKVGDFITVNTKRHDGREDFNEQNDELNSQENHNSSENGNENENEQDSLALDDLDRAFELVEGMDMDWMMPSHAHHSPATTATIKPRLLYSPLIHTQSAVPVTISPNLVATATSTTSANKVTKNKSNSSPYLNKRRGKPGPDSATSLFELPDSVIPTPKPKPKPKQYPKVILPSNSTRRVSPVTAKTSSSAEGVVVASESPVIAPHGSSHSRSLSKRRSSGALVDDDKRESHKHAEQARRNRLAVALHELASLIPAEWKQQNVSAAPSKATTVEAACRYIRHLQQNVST
`GAGTTTTTGCATTTGCACGTGAATTAGTTCTTGGCCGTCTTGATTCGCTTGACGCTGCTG` gave a fluorescence intensity of 12800 a.u.
With `AGCAACCGCACACAGAATGTGACGGCAAATGCATTTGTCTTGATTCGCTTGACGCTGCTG` the fluorescence intensity was 5050 a.u.
For `GATGTTGTCTGCTTTGTCGTGCTAACCAAACAGCAAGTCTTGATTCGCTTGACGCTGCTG`, the fluorescence intensity was 5580 a.u.
`CTTCTGTAAATTTGTCACACAACTTGACGCGCCCCGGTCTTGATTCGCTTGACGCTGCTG` has a fluorescence intensity of 4020 a.u.
`CATCATCATCTTCACCACGTGCAAAAAACCTTGTGCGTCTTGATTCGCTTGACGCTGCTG` gave a fluorescence intensity of 14200 a.u.
For `CGTCCTAGTGATTGCGTGGTGGGTGCCATGAGGAAGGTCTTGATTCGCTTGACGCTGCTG`, the fluorescence intensity was 9180 a.u.
`CGGGGTTAAGTTTGGGAAGTGGGTGGCTTGCAGCAGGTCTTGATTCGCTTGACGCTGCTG` gave a fluorescence intensity of 4780 a.u.
The fluorescence intensity of `CGTCCTAGCGATTGATTTGTGGGTGCCATGAGGAAGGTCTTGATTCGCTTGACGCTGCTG` is reported as 7110 a.u.

Sample 2
Target: RING finger protein unkempt homolog, zinc fingers 1-6, GST-SBP tag (UNK, Homo sapiens, UniProt Q9C0B0, residues 30-357)
Technique: RNA Bind-n-Seq
Molecule type: RNA
Medium: in vitro
Tested at: not given
Notes: RNA with constant flanks, human-mouse chimeric sites, ends assumed
Baseline: input RNA pool
Direction: higher = stronger binding
Target sequence (chain): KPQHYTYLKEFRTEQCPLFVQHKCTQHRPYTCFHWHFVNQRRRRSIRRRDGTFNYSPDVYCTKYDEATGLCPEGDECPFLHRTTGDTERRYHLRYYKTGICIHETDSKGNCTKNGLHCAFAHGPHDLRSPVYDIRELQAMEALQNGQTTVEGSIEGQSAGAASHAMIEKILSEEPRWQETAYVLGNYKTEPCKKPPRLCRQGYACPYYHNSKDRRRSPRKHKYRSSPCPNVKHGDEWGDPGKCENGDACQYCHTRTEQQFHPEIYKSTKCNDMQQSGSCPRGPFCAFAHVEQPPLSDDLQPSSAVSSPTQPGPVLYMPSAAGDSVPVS
`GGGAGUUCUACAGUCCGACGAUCCUGGCACUGUAUCAGAUAUAUUAAUUUUUUAAUGUAGAUGUAAUUUUAAAAAUGAAUGGCUACUUUACACGUUUAACUAGGGUUUUACUACAUAUGUGUACAUAUGUAUAUAUAUAUAUACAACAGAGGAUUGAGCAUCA` has a bound/input enrichment of 6.11 ratio.
The bound/input enrichment of `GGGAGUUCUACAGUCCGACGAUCAAAGUGAUGACUAUGUUUGUCCAACGACAGGUGUUUGCGGAGAGCAAAGAUGAGAUUGCGUUAGUCCUCUAUGGCACAGAUGGCACUGAUAAUGCCCUUUCUGGUGGGGACCAGUAUCAGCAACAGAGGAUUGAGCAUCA` is reported as 0.24 ratio.
With `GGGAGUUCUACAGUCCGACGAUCAGGAGGAGGUUAAAGGGUGAGAGUGGGGUGGAAGACUGUGUCAUGGCUCUGGAGACAUUGUUUAGUGUCCUGCUUUCUCUGUGCAGACUGAUGGCCCCUUACACGCCUUUUCUCACUGAGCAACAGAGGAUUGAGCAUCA` the bound/input enrichment was 0.0979 ratio.
With `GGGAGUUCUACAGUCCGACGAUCAGUGUGCAGGAAUUCAUGACCUUCACGAGUCAACUGAUUGUGGAACGCUCGGGGAAAGGCACUAGAGCUUCUGUCAAAGAACAAGAGUAUCUUUGCCAUGUCUACGUCCGGAGCGACAGUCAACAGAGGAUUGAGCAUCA` the bound/input enrichment was 0.0728 ratio.
`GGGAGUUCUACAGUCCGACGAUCUAAAUUAGGGCUGCCGUUUUCUGUUUCUCCCUGGGCUGCGGAAAGCCAGAAGAUUUUAUCUAGUUUGUACAAGGCUGCUGGUGUUCCCUCUUUUUUUCCCUCUCUCUGUUUUUGGCUGCACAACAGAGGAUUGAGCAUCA` has a bound/input enrichment of 1.61 ratio.
`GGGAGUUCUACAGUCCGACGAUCGGAAGUACAAUGAUGGAGAUUGAUGGUGACAAAGGCAAGCAGGGCGGGCCCACCUACUACAUAGAUACCAAUGCCCUCCGCGUGCCCAGGGAGAACAUGGAGGCCAUCUCACCACUCAAGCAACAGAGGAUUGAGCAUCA` gave a bound/input enrichment of 0.288 ratio.
The bound/input enrichment of `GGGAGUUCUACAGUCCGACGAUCCUGGCACUCUAUCAGAUAUAUUAAUUUUUAAAUGUAGAUGUAAUUUUAAAAAUGAAUGGCUACUUUACACGUUUAACUAGGGUUUUACUACAUAUGUGUACAUAUGUAUAUAUAUAUAUACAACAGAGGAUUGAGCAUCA` is reported as 9.84 ratio.
The bound/input enrichment of `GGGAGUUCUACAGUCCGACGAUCAGAGAAAUGAGAAAGAAUCUUACACAAGAAGAGAUGCAAAGAAUGUCUACUAGAGUCCUUUUGGCGACUCUUUCCAUCCCUAUUACUCCUGAGCGAACGGAUAUUGCUCGACUUUUGGAUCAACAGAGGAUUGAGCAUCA` is reported as 0.106 ratio.

Sample 3
Target: Histone acetyltransferase KAT6A, winged helix 2, GST fusion (KAT6A, Homo sapiens, UniProt Q92794, residues 85-181)
Technique: protein binding microarray
Molecule type: double-stranded DNA, one strand shown
Medium: in vitro
Tested at: not given
Notes: 8-mer, flanks averaged, mean of 2 arrays, mostly near background
Baseline: not given
Direction: higher = stronger binding
Target sequence (chain): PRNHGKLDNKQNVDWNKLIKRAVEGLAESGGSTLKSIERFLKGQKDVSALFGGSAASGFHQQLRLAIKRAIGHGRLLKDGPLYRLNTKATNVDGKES
With `AGTGAGAT` the E-score was 0.0245.
With `ACGTACGG` the E-score was -0.189.
`CGCACGAA` gave an E-score of 0.156.
`AGATTCGG` gave an E-score of 0.0681.
`CCGCGGCG` gave an E-score of 0.205.
`GACTGTGC` gave an E-score of -0.262.
The E-score of `GCAAAGTA` is reported as 0.0098.
`AAAACCGA` gave an E-score of 0.12.

Other studies, line by line
CC1(COc2ccc3c(c2)ncn3-c2ccc3cccc(N4CCC(N)CC4)c3n2)COC1 has an inhibition of 14.9% (AlphaScreen signal, AlphaScreen counter screen; His6 peptide without bromodomain; 50 µM, assay interference check).
